Experimental data from different studies.
Every numbered part comes from another study and shows a few of its results, in no order. Substitutions count along the parent as printed.

Set 1
Target: PABPC1L2, full length, GST fusion (mouse, UniProt A0ABA7IW68)
Method: RNAcompete
Form: RNA
Matrix: in vitro
Tested at: 20 nM
Setting: 7-mer, probes averaged, single round
Baseline: mean of 7-mers
Reading: higher = stronger binding
Residues (chain): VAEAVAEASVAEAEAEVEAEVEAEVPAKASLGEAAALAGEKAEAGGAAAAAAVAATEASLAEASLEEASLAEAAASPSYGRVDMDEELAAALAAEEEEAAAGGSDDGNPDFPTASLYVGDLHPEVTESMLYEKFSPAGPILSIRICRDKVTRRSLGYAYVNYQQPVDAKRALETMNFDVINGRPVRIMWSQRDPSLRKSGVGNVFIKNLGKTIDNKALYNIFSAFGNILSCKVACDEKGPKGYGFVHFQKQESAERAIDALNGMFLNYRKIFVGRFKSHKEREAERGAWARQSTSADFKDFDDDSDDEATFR
With `AGGCUUU` the 7-mer Z-score was -0.161.
With `UAGCCGC` the 7-mer Z-score was -0.248.
With `UAUAUUG` the 7-mer Z-score was -0.128.
For `GCAUCAA`, the 7-mer Z-score was -0.0736.
`CACUUGU` gave a 7-mer Z-score of -0.324.
`ACACAGU` has a 7-mer Z-score of -0.126.
`UUCAAGU` has a 7-mer Z-score of -0.253.
`UCAAUUC` gave a 7-mer Z-score of -0.237.
The 7-mer Z-score of `CUAGUAU` is reported as -0.226.
With `UCGGCGG` the 7-mer Z-score was -0.0609.
The 7-mer Z-score of `CUGACCC` is reported as -0.32.
`AUCUGGG` has a 7-mer Z-score of 0.126.
`GUCACAA` has a 7-mer Z-score of 0.0678.
The 7-mer Z-score of `UUUAGUA` is reported as 0.0605.
`GCGUUCG` has a 7-mer Z-score of -0.255.
With `GAGCAUA` the 7-mer Z-score was 0.0805.

Set 2
Target: CCNE1, cyclin fold, Cln2 fusion (human)
Method: yeast growth competition, sequencing
Matrix: yeast
Setting: strong parent motif
Baseline: not given
Reading: higher = stronger binding
Starting sequence: E2F1 docking peptide (human); PPVKRRLDLETDH
For `PPPKRRLDLETDH [V3P]`, “normalised enrichment score” read 0.747.
Under “normalised enrichment score”, `PVVKRRLDLETDH [P2V]` is recorded as 0.947.
`CPVKRRLDLETDH [P1C]`: “normalised enrichment score” 1.3.
`PPCKRRLDLETDH [V3C]` — result for “normalised enrichment score”: 2.23.
`PPVKRCLDLETDH [R6C]` — result for “normalised enrichment score”: 0.558.
Under “normalised enrichment score”, `PPVNRRLDLETDH [K4N]` is recorded as 0.717.
`PPVKRRTDLETDH [L7T]`: “normalised enrichment score” 0.463.
Under “normalised enrichment score”, `PPVKRRLDLETDR [H13R]` is recorded as 1.61.
For `PTVKRRLDLETDH [P2T]`, “normalised enrichment score” read 1.72.
For `PPVKRRLYLETDH [D8Y]`, “normalised enrichment score” read 3.28.
`PPVLRRLDLETDH [K4L]`: “normalised enrichment score” 0.485.
`PPVKRRLSLETDH [D8S]` — result for “normalised enrichment score”: 1.97.
Under “normalised enrichment score”, `PPVKRRLDLETLH [D12L]` is recorded as 1.69.
`PPVKDRLDLETDH [R5D]`: “normalised enrichment score” 0.273.
Under “normalised enrichment score”, `PPVKRRLDLETDM [H13M]` is recorded as 2.24.
For `PPVKRRLDLELDH [T11L]`, “normalised enrichment score” read 3.91.
`PPVKRRLNLETDH [D8N]`: “normalised enrichment score” 2.92.
For `PPVKRRLALETDH [D8A]`, “normalised enrichment score” read 1.07.
`HPVKRRLDLETDH [P1H]` — result for “normalised enrichment score”: 1.68.
`PPFKRRLDLETDH [V3F]`: “normalised enrichment score” 0.916.
`PPVDRRLDLETDH [K4D]`: “normalised enrichment score” -0.181.
Under “normalised enrichment score”, `PPVKRHLDLETDH [R6H]` is recorded as 0.732.
For `PPVKRRLGLETDH [D8G]`, “normalised enrichment score” read 1.03.
`RPVKRRLDLETDH [P1R]` — result for “normalised enrichment score”: 1.
For `PPVKRRLDLLTDH [E10L]`, “normalised enrichment score” read 1.05.

Set 3
Target: RNA binding protein fox-1 homolog 2, RRM domain, GST-SBP tag (RBFOX2, Homo sapiens, UniProt O43251-10, residues 100-194)
Method: RNA Bind-n-Seq
Form: RNA
Matrix: in vitro
Tested at: 365 nM
Setting: natural RNA segment, single round, ends assumed
Baseline: no-protein control
Reading: higher = stronger binding
Residues (chain): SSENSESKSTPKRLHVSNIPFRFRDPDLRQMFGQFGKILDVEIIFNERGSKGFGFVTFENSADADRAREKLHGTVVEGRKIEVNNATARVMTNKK
`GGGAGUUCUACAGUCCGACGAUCCCCUCCUGUGAUGGGCAGAGGCUCCUGGUACAUCGAGAAGAUUCCUGUGGAUCCCGUCAGGAGGGACUUAGUGGCUCUGCCGCCAGUGAGACUUCCCGCCGGCAGCUGUGUGGAAUUCUCGGGUGCCAA`: “RBNS enrichment (R)” 0.243.
Under “RBNS enrichment (R)”, `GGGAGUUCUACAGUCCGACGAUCUCCACUCCCCCUGCCUGCCCCCAGCAUCUGGACAAGCUAAUAGCAAAUAUUACCCAUUGCUAUCAAGGGAGGAGGGGGUAGUCUGUAGAACCCAUGUGUGACAGUCAUGUUGGAAUUCUCGGGUGCCAA` is recorded as 1.66.
For `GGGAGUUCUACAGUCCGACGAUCCCCUAAGGACUGGACCUCCCGGCCCCUGUCAUGAUCAGGAACUCCAGUUCAUAAUUUAUAAAGAAGCAGUUUGUGUGUGUGUGGGUGUGUGUGUGCUCGCGAGCGCCAUCUGGAAUUCUCGGGUGCCAA`, “RBNS enrichment (R)” read 0.654.
`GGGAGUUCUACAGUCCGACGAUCGGUUGAAUUUGAUACACACAGGAAGUUUUCUUGAAGAACAAUCCUUUCGCUUUUCUUUUUUCUUGAGAGAUCUAAAGAGAAACUGUAGAUUGUUUUCCUGACAGCAAAAGUGGAAUUCUCGGGUGCCAA` — result for “RBNS enrichment (R)”: 0.486.
Under “RBNS enrichment (R)”, `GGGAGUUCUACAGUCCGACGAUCCAGCAGAAGCUUGUAGGAUGAGUGUGUCGGGGCUUAAAUACUAGACAGUUCCAAUGAGAUAACACUAUCAGCUUGUCUGGUAGAGCACCCCCUGCCUCACAUGGGGAGCAUGGAAUUCUCGGGUGCCAA` is recorded as 0.649.
Under “RBNS enrichment (R)”, `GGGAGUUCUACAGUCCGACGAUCUAACCAUAAUACUGUGAUCAUUAUUUGGAAAUAUGUCCUAUGGAAAGAAUAAAAGCAUGUACUUCACAGCUAGCAUGUUCACAGAUUUGAAAGAAGUUUCAUUAAAAGCAUGGAAUUCUCGGGUGCCAA` is recorded as 4.28.
Under “RBNS enrichment (R)”, `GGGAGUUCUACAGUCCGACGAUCUUUUAACGCACAACUUGCUUGUACAGUAAACUGUCUUCUGUACUAUUUAACUGUAAAAUGGAAUUUUGACUGAUUUGUUACAAUAAUAUAACUCUGAGAUGUGUGGAAGGUGGAAUUCUCGGGUGCCAA` is recorded as 0.509.
`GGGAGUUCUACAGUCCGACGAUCGGCUUGCUGUGGGACGCCCUCGUACUUUGCUCUCCUUGCGGGUGGUUGCCGAGCCGAGAGCAUUGGAUCCUCCCCGACUGUGGCUAGUUGUCUGUCCGGUGGCUGGGAGGUGGAAUUCUCGGGUGCCAA`: “RBNS enrichment (R)” 0.599.
For `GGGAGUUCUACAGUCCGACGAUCUGUGCAUACCCUUGGUAGACAUUUCUCAUAGUGUGUACUUAAAAAGUGCCUGACAUUGAUUUGUGUUGAUUUCUAAGUCCAUGUAAUAAAUGAUACAUGUUUUCUAUGAUUGGAAUUCUCGGGUGCCAA`, “RBNS enrichment (R)” read 0.323.
`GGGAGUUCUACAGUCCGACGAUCCAUAGAGUGGAUAGGCAGACAGGUACUAUUGUAAUGUAUUCUGUAUUUAAUAAUUUAAUAUACUCUAGAAAGUAGACCUCAUGCAUUCUUUUAGCAUGAUUUUCUUUUAAUGGAAUUCUCGGGUGCCAA`: “RBNS enrichment (R)” 1.66.
`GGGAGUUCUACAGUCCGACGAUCGUUUGUCUCCUGUAAAUAGCGGCUCCUAUGCCAUCCUCCCUGCUUUAUUAGUUAAUUUAAAUGAACACUCUUAUGUUCCAGUCUUAUAAAUAAAGCCUAUAGUGCACUUCUGGAAUUCUCGGGUGCCAA`: “RBNS enrichment (R)” 0.911.
`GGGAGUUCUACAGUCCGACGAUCAUUUCCACCUCUGCCUUUAAGGCAUUUUUGUCACUGAAGCUGCUGUUCCCAAGAGAUCGGCAACCUUUUUGUCCCUUUCUCAUAAGAAAGGGACACUCCUACAGGUGAGAUGGAAUUCUCGGGUGCCAA` — result for “RBNS enrichment (R)”: 0.231.

Set 4
Target: ABI1, truncated, D143A, DHFR fusion (Arabidopsis thaliana)
Method: DHFR PCA, deep sequencing
Matrix: yeast
Setting: methotrexate growth selection, single substitutions
Together with: (+)-ABA 2500 µM
Baseline: wild-type fitted maximum
Reading: higher = stronger binding
Starting sequence: PYL1, truncated, DHFR fusion (Arabidopsis thaliana); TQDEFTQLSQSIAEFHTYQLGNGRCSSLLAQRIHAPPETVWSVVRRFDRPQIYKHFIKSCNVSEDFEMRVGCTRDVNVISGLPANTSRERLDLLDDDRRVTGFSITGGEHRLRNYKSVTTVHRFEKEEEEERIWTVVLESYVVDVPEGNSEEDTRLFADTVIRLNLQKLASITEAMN; partner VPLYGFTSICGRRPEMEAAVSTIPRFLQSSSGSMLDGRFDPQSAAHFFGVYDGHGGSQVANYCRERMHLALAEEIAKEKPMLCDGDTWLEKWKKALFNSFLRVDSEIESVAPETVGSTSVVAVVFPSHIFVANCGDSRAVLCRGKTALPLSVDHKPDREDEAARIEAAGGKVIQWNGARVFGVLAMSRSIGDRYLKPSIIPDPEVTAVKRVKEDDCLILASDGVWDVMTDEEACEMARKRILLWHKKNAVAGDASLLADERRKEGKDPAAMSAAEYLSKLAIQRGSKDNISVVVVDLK
Under “relative binding score”, `T160N` is recorded as 92.8%.
`T173K` — result for “relative binding score”: 56.9%.
`C72T`: “relative binding score” 92.6%.
`L28D` — result for “relative binding score”: 22.1%.
`N149C`: “relative binding score” 81.6%.
`S117Q`: “relative binding score” 99%.
For `I52N`, “relative binding score” read 95.9%.
For `T173F`, “relative binding score” read 93.6%.
`E125A` — result for “relative binding score”: 98.2%.
For `I105Q`, “relative binding score” read 8.2%.
`R69Y` — result for “relative binding score”: 93.9%.
`V142P` — result for “relative binding score”: -5.29%.
For `V76H`, “relative binding score” read 51.8%.
Under “relative binding score”, `R90D` is recorded as 69.9%.
`V43H` — result for “relative binding score”: 91.8%.
`R46S` — result for “relative binding score”: 94%.
For `S42G`, “relative binding score” read 104%.
For `C60Q`, “relative binding score” read 50%.
`W41V`: “relative binding score” -13.9%.
`E4H` — result for “relative binding score”: 104%.
`E152C` — result for “relative binding score”: 93.6%.
Under “relative binding score”, `A158M` is recorded as 96.1%.
`R49M` — result for “relative binding score”: 91.8%.
`V44Q`: “relative binding score” 57.2%.
Under “relative binding score”, `G81D` is recorded as 80.6%.

Set 5
Target: Histone acetyltransferase KAT6A, winged helix 2, GST fusion (KAT6A, Homo sapiens, UniProt Q92794, residues 85-181)
Method: protein binding microarray
Form: double-stranded DNA, one strand shown
Matrix: in vitro
Tested at: not given
Setting: 8-mer, flanks averaged, mean of 2 arrays, mostly near background
Baseline: not given
Reading: higher = stronger binding
Construct (chain): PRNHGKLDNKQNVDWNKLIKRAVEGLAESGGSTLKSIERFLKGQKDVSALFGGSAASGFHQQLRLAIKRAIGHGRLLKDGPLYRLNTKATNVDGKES
For `CTTACAGC`, the E-score was -0.0902.
For `CGTGTCTC`, the E-score was -0.0697.
`AGTTAGTG` has an E-score of -0.0227.
`ACCGCCTG` gave an E-score of 0.166.
`GCTGGAAA` gave an E-score of 0.181.
`ATGCTGCA` has an E-score of 0.0254.
The E-score of `CAATCCCG` is reported as 0.194.
With `ACCGCAAA` the E-score was 0.19.
For `AATGCTCT`, the E-score was 0.0197.
The E-score of `ACTTCTAT` is reported as 0.00398.
`CGTACTAC` gave an E-score of -0.17.
`GTTGAATA` has an E-score of 0.0733.
`CAGATACG` gave an E-score of -0.145.
For `GAGTGAGC`, the E-score was 0.0478.
For `ACGGTTCG`, the E-score was -0.13.
The E-score of `ACGATGCT` is reported as -0.0424.
The E-score of `GGGGATTA` is reported as -0.0101.
`AAGCCGCA` gave an E-score of 0.118.

Excerpt of the above (set 4):
`E125A` — result for “relative binding score”: 98.2%.
For `I105Q`, “relative binding score” read 8.2%.
`R69Y` — result for “relative binding score”: 93.9%.
`V142P` — result for “relative binding score”: -5.29%.
For `V76H`, “relative binding score” read 51.8%.
Under “relative binding score”, `R90D` is recorded as 69.9%.
`V43H` — result for “relative binding score”: 91.8%.
`R46S` — result for “relative binding score”: 94%.
